Measured values pooled from the literature.
Parts stem from different laboratories: compare values within a part only. Substitutions count along the parent as printed.

Block 1
Target: Interferon regulatory factor 5, full length, phosphomimetic (IRF5, Homo sapiens, UniProt Q13568-2, residues 1-514, S451D/S453D/S456D/S462D)
Method: protein-binding microarray
Form: double-stranded DNA, one strand shown
Matrix: in vitro
Tested at: 940 nM top
Notes: 60-bp whole probe
Added: salmon DNA 0.4 mg/ml
Reference: random background probes
Reading: higher = stronger binding
Shared flanks, not repeated: GCCTAGCAC … GTCTTGATTCGCTTGACGCTGCTG
Sequence | fitted relative affinity [z-score]
TTAGCTTTCCTTCTCCTTTAGTGCTAG | 1.11
CTAGATCTCAGTCTCGATTAGTGCTAG | 3.14
GACGATATCGGGTAACGAGACGTGCTA | -0.052
CTGCAGCCCACTCCTGAACAGTGCTAG | -0.324
TCACAGCTGTTTTTCTCACTGTGCTAG | 0.467
TTAGGTTTCGGTTTCGGTAAGTGCTAG | 17.1
GACGTTTTCAGTCTCGAGACGTGCTAG | 2.23
TTAGGGATCGACACTGGGTTAGTGCTA | -0.0194
TCAGATATCGGGACTGGATTAGTGCTA | -0.309
CCACTGCAAAAACATCCTGGGTGCTAG | 0.142
TGGCACCTCTAGACTCTAAATGTGCTA | -0.284
GACGGTATCGGGACAGGGGACGTGCTA | 3.17
TTAGATATTAGACTGGATTAGTGCTAG | -0.229
GCCGGTTTCGGACTGGGGACGTGCTAG | 7.15
TCAGGTTAAAATTTTGCACTGTGCTAG | -0.239
GACGAACTGAGTATAGAGACGTGCTAG | -0.342
GCACTCTTCTTTTTTTTCTTGTGCTAG | 1.09
TCCAATTACCTTTTCACTTTGTGCTAG | 1.45
GACGGATTGGGGTATCGGGACGTGCTA | 0.743

Block 2
Target: Fragile X messenger ribonucleoprotein 1, C-terminal low-complexity region (Fmr1, Mus musculus, UniProt P35922)
Method: RNA Bind-n-Seq
Form: RNA
Matrix: in vitro
Tested at: 200 nM
Notes: whole 134-nt RNA, ends assumed
Added: 150 mM LiCl
Reference: input library
Reading: higher = stronger binding
Library: 7-deaza-guanosine replaces G
Shared flanks, not repeated: GGGAGUUCUACAGUCCGACGAUC … UGGAAUUCUCGGGUGUCAAGG
Sequence | log2 enrichment
GCGGACCGAGAAAGUCGUUACGAGGAAGAAGAAGAACAAAGUCGAAGUAUGAGCCGGAAGAGGAAGGCAUCUGUGCACAGUUCGGGCCGU | 1.79
CCUCAAGUCCUGUGCUACACAUCGUAUGUACCGAAUCGGUUGGGUUGGUUGGAAAGUAUUAUGUUACGCCGUUCGGAUCUGCACUUCCAG | -0.204
AGUCCUGUGCUACACAUCGUAUGUACCGAAUCGGGGAGGGGAAAGGGGUUUUUGGGGAAAGUAUUAUGUUACGCCGUUCGGAUCUGCACU | -0.531
UCCUGUGCUACACAUCGUAUGUACCGAAUCGGGUUUUUUUGGGUUUUUUUGGGAAAGGGAAAGUAUUAUGUUACGCCGUUCGGAUCUGCA | 0.0946
GCAGGAAGUAAAAACAAAUGGAAAUGCUUCGGAUAGUGGCAGGGGUGGGGGUUGCUAAGGAAAGGGUGGGAUGGGAGUGGGUAAAGAGCU | 1.54
GCAGGAAGUAAAAACAAAUGGAAAUGCUUCGGAUAGUGGCAGGGGUGGGGGUUGCUAAGGAAAGGGUGGGAUGGGAGUGAGUAAAGAGUU | 1.59
GAAGAUUGGCUUAAAAUGGCUACUGUGAUGGGAACAGUGUCUUAGGGAGAUGCAGCUUGGACUUGAGGUAAAUUGAAUACUUUACAACUG | 1.03
ACCAUGCAAAAGGGCAUCUUUGGGAAGUGGGGCAAGGGGGGGAUAGGGAGGGGGGUAACACUUUGGGAACAGGUGGUCCCAGGUCGUUUC | 1.6

Block 3
Target: Sal-like protein 4, full length isoform B (SALL4, Homo sapiens, UniProt Q9UJQ4-2, residues 1-616)
Method: universal PBM
Form: double-stranded DNA, one strand shown
Matrix: in vitro
Tested at: not given
Notes: 8-mer, flanks averaged, mean of replicates
Reading: higher = stronger binding
Sequence | E-score
ATGCACCG | -0.121
AAGGCCGG | -0.191
GACAGCTC | -0.331
GTGGTTAA | 0.0522
CAATGGAA | 0.00412
CTGGCTCA | -0.168
CAGCCTTC | -0.237
AAGTTTTC | 0.219
AGCCAAAT | -0.0444
GTCCTTAA | 0.166
ACATCGAC | -0.072
CCATAGAC | 0.0101
CATAGTCA | 0.134
ACACAGGT | -0.0564
AACAGCGT | 0.00761
CACTTAGC | -0.161
CTGCTTGC | -0.0416
CAACCTTG | 0.01
ACGAAGTA | -0.0674
ATATTCCC | 0.274
AACTCCCT | -0.0114
AGAGTTCC | -0.295
CCTTCAAC | -0.0708
AGTTTCCA | 0.189
GTCTTAAA | 0.00531

Block 4
Target: CCNB1, cyclin fold, Cln2 fusion (human)
Method: yeast growth competition, sequencing
Matrix: yeast
Notes: weak parent motif
Reference: not given
Reading: higher = stronger binding
Starting sequence: ORC1 docking peptide (human); PRARKRLELGNLG
Variant | normalised enrichment score
PRARKRLECGNLG [L9C] | 1.03
PRARKRLELGMLG [N11M] | 1.41
PRARKRLELGNLS [G13S] | 1.06
PRIRKRLELGNLG [A3I] | -0.447
PRARKLLELGNLG [R6L] | 0.987
PRARKDLELGNLG [R6D] | 0.639
PRARKRLKLGNLG [E8K] | 0.261
PRARVRLELGNLG [K5V] | 0.0102
PRARKRLSLGNLG [E8S] | 0.681
PRNRKRLELGNLG [A3N] | 1.46
PRATKRLELGNLG [R4T] | 1.07
ARARKRLELGNLG [P1A] | 1.03
PLARKRLELGNLG [R2L] | -0.407
PRARKRLEMGNLG [L9M] | 0.974
PRACKRLELGNLG [R4C] | 0.367
PVARKRLELGNLG [R2V] | 0.539
PRARFRLELGNLG [K5F] | 0.0852
PRARKRIELGNLG [L7I] | 0.918
PRARKRAELGNLG [L7A] | 0.617
PRARKRLELGNLW [G13W] | -0.51
PCARKRLELGNLG [R2C] | -0.00543
PRARNRLELGNLG [K5N] | 0.339
PRARKRLQLGNLG [E8Q] | 0.988
PRARDRLELGNLG [K5D] | 0.468
PAARKRLELGNLG [R2A] | 0.462

Block 5
Target: ABI1, truncated, D143A, DHFR fusion (Arabidopsis thaliana)
Method: DHFR PCA, deep sequencing
Matrix: yeast
Notes: methotrexate growth selection, single substitutions
Added: (+)-ABA 0 µM
Reference: wild-type fitted maximum
Reading: higher = stronger binding
Starting sequence: PYL1, truncated, DHFR fusion (Arabidopsis thaliana); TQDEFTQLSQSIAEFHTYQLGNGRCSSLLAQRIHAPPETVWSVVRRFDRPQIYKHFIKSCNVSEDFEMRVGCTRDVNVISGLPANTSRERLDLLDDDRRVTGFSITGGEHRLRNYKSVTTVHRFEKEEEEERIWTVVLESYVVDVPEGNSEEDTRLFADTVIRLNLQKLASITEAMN; partner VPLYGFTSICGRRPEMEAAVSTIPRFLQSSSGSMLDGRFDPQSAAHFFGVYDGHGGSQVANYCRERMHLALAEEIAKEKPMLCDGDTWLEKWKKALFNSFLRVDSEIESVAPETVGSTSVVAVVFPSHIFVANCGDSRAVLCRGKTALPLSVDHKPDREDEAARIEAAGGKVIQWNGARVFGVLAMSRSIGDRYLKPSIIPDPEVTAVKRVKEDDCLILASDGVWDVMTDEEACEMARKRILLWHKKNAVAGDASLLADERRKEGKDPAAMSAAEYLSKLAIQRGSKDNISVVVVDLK
Variant | relative binding score
L91A | 6.12%
I33S | -0.0989%
R49N | 11%
D3I | 14%
T101D | 1.92%
K126H | 32%
L20Y | 15.9%
K168C | 5.81%
H110E | 46%
T173M | -0.927%
I162N | 3.42%
K58W | 0.436%
G21W | 3.99%
N149Y | 20.4%
P37N | -2.87%

Excerpt of the above (block 4):
Variant | normalised enrichment score
PRARKRLECGNLG [L9C] | 1.03
PCARKRLELGNLG [R2C] | -0.00543
PRARDRLELGNLG [K5D] | 0.468
PRARKRLEMGNLG [L9M] | 0.974
PRARKRLKLGNLG [E8K] | 0.261
PRARKRLELGNLS [G13S] | 1.06
PRARFRLELGNLG [K5F] | 0.0852
PRARKLLELGNLG [R6L] | 0.987
PRIRKRLELGNLG [A3I] | -0.447
PRACKRLELGNLG [R4C] | 0.367
PRARKRLSLGNLG [E8S] | 0.681
PLARKRLELGNLG [R2L] | -0.407
